Experimental data collected from several papers.
Compare with care: the assays were run in different laboratories. ± gives the spread as reported.
Epithelial sodium channel subunit beta: Epithelial sodium channel subunit beta (Homo sapiens, UniProt P51168)
Chain of UniProt P51168 (whole entry, looked up): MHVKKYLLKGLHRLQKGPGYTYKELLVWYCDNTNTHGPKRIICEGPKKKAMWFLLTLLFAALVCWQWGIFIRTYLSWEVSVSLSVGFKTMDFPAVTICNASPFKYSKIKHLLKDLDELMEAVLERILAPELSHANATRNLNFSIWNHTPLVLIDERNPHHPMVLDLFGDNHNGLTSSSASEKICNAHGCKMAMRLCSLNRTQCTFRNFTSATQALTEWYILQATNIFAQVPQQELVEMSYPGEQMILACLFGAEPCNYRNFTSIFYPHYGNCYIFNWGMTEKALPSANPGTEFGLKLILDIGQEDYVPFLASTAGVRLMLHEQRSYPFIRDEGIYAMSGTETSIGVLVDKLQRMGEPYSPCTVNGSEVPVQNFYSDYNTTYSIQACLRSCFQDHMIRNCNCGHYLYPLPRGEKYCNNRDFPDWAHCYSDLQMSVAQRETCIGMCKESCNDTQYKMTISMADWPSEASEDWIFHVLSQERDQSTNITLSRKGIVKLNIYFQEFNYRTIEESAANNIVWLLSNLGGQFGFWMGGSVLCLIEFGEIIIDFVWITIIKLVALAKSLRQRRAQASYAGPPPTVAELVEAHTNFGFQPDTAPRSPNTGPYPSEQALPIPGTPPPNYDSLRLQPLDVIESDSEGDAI
uncharacterized protein: uncharacterized protein (Anopheles coluzzii, UniProt A0A6E8VQK1)
HLA class I histocompatibility antigen, A alpha chain: HLA class I histocompatibility antigen, A alpha chain (Homo sapiens, UniProt P04439)
gag-pol K653A reverse transcriptase: Gag-Pol polyprotein, reverse transcriptase (gag-pol, Human immunodeficiency virus type 1 group M subtype B, UniProt P04585, K653A)
Chain of UniProt O35659 (whole entry, looked up): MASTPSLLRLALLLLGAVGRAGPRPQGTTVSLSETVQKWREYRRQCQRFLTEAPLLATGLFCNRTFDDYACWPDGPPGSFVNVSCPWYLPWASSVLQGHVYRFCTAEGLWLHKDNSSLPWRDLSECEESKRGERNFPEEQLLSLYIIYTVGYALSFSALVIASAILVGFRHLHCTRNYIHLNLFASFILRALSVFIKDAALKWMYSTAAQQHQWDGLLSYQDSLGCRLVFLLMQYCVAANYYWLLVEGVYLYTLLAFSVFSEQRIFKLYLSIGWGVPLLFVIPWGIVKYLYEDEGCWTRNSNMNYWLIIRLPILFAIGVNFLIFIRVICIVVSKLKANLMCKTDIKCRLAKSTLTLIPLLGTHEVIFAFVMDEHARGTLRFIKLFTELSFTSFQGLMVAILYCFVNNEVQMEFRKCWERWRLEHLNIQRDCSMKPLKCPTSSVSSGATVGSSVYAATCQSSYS
Chain of UniProt P42260 (whole entry, unmodified, looked up): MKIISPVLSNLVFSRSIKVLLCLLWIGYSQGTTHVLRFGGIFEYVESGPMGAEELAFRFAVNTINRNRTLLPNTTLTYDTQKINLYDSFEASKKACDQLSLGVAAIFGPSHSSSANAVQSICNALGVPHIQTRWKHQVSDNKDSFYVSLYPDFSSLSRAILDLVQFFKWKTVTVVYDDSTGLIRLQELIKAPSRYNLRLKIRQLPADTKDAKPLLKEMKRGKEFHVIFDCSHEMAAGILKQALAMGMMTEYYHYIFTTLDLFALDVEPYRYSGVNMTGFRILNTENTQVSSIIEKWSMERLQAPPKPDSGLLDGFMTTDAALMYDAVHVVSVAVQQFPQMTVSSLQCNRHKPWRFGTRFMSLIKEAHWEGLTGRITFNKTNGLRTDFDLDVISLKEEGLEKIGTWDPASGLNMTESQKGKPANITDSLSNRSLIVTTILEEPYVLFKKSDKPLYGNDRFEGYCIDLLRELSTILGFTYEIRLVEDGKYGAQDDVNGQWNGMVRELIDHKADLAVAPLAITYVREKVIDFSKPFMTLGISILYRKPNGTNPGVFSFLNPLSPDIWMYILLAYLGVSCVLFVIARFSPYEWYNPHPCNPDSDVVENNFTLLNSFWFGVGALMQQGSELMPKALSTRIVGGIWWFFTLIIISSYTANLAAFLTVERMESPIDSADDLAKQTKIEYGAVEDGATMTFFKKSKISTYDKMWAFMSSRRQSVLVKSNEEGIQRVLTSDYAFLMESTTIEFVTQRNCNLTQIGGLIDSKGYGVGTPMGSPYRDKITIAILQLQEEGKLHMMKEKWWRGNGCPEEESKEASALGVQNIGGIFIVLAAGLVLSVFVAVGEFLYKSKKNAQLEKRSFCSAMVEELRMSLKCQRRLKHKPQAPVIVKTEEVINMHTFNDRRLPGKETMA
Chain of UniProt Q9NSA0 (whole entry, looked up): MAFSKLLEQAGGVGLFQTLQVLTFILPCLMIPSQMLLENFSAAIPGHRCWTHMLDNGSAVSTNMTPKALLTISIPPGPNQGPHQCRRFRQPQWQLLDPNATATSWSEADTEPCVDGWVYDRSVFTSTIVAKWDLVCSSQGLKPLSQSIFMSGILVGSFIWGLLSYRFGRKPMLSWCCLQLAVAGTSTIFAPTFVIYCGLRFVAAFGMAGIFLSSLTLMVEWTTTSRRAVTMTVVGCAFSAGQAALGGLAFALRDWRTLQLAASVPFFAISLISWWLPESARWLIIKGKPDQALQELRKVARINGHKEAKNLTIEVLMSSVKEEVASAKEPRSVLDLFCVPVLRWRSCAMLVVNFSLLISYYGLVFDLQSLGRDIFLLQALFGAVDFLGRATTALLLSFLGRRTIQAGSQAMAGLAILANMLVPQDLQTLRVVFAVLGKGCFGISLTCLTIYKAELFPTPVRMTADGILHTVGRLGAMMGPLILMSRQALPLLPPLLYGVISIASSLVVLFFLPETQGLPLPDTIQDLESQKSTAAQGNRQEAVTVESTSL
Chain of UniProt P06828 (whole entry, looked up): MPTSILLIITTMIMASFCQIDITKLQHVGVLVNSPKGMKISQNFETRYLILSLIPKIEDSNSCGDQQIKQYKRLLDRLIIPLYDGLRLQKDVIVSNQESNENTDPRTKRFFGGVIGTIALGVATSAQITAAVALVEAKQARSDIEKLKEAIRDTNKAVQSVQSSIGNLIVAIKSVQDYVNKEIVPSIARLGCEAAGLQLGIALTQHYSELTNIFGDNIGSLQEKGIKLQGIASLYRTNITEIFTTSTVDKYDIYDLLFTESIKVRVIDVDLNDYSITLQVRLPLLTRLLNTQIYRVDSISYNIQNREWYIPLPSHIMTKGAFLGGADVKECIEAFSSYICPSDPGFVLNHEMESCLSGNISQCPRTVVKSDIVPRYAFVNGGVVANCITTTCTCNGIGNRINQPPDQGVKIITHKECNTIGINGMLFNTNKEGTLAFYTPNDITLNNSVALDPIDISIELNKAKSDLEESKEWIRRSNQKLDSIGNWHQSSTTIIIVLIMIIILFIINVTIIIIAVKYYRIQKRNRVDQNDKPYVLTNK
Chain of UniProt P04756 (whole entry, looked up): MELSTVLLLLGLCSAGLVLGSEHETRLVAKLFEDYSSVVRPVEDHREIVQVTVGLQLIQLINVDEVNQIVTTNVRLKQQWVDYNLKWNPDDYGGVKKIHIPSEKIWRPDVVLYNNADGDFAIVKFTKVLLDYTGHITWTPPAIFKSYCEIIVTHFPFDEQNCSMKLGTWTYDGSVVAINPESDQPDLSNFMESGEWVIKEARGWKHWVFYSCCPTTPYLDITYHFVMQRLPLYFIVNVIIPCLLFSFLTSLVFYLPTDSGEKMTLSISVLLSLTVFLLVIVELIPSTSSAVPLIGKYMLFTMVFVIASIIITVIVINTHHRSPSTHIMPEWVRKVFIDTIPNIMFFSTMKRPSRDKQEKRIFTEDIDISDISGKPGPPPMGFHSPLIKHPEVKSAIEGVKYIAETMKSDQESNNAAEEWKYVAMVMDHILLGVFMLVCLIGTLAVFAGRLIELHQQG
Chain of UniProt P20782 (whole entry, looked up): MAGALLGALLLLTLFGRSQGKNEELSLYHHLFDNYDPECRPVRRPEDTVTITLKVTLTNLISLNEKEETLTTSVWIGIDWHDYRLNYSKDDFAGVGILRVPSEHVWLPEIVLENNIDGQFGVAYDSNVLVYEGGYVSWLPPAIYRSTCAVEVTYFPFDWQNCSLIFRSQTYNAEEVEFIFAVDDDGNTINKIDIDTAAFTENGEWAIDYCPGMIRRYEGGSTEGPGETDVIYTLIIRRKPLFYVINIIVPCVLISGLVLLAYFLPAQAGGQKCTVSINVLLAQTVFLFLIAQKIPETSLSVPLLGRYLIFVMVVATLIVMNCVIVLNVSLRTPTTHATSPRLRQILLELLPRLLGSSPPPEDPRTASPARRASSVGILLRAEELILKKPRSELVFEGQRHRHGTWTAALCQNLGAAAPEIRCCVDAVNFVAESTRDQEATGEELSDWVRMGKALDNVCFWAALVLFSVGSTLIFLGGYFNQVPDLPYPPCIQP
Chain of UniProt P03230 (whole entry, looked up): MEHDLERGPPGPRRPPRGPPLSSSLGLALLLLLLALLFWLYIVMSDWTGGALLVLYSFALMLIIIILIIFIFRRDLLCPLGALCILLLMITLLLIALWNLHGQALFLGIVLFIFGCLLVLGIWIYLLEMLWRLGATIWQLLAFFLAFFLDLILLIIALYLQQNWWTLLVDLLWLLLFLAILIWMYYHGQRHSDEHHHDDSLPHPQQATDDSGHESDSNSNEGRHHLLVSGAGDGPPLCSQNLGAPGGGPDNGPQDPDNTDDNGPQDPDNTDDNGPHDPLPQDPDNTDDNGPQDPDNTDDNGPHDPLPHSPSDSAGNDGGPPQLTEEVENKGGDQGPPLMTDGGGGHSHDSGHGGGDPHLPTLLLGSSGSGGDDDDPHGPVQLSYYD
Chain of UniProt P02716 (whole entry, looked up): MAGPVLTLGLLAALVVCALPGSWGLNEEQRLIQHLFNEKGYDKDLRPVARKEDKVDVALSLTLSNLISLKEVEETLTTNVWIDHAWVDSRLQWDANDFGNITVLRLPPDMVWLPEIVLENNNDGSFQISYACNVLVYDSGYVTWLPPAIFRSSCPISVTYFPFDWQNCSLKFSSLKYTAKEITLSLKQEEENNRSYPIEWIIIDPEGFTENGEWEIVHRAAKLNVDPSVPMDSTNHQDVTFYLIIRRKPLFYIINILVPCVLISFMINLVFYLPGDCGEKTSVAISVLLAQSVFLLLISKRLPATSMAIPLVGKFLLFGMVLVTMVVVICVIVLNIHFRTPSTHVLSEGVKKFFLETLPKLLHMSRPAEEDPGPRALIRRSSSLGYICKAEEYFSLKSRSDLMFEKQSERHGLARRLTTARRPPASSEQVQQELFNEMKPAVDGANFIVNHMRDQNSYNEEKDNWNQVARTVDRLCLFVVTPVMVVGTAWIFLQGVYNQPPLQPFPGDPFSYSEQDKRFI

| Molecule | target | assay | test system | conditions | scale | quantity | value |
| --- | --- | --- | --- | --- | --- | --- | --- |
| CC(C)C[C@@H]1NC(=O)CNC(=O)[C@H](CC(C)C)NC(=O)[C@H](CO)NC(=O)[C@H](CCCCN)NC(=O)[C@@H]2CSSC[C@@H](C(=O)N[C@H](C(N)=O)C(C)C)NC(=O)[C@H](C)NC(=O)[C@@H]3CSSC[C@H](NC(=O)[C@H](Cc4ccccc4)NC(=O)[C@H](Cc4c[nH]cn4)NC(=O)[C@H](CC(C)C)NC(=O)[C@H](CC(N)=O)NC(=O)CCSSC[C@H](NC(=O)[C@H](CCCCN)NC(=O)CNC(=O)[C@H](CC(C)C)NC1=O)C(=O)N[C@@H](C)C(=O)NCC(=O)N[C@@H](CO)C(=O)N[C@@H](Cc1ccccc1)C(=O)N3)C(=O)N[C@@H](CCC(N)=O)C(=O)N[C@@H](CC(C)C)C(=O)N[C@@H](CCCNC(=N)N)C(=O)N2 | env (Human immunodeficiency virus type 1 group M subtype B, UniProt P35961) | binding, surface plasmon resonance | – | pH 7.4, 1:1 Langmuir fit | – | dissociation rate constant | 0.00475 ± 1.3e-05 s⁻¹ |
| CC(C)C[C@H](NC(=O)[C@@H]1CCCN1C(=O)[C@H](CCCNC(=N)N)NC(=O)[C@H](CC(C)C)NC(=O)[C@H](CCCNC(=N)N)NC(=O)[C@H](CC(=O)O)NC(=O)[C@H](Cc1ccc(O)cc1)NC(=O)[C@H](CC(=O)O)NC(=O)[C@H](CCC(=O)O)NC(=O)[C@H](CCC(N)=O)NC(=O)CN)C(=O)O | Epithelial sodium channel subunit beta | binding, bio-layer interferometry | – | – | – | koff | 0.0228 s⁻¹ |
| NC(=O)c1c(N)sc2c1CCCCC2 | Gag-Pol polyprotein, RT with RNA/DNA hybrid (gag-pol, Human immunodeficiency virus 1, UniProt P03366, E1077Q) | substrate binding, electrophoretic mobility shift | – | 50 µM | – | RNA/DNA substrate affinity | no effect |
| CCOC(=O)CC(SP(=S)(OC)OC)C(=O)OCC (stereo not shown) | uncharacterized protein | enzyme activity, inhibitor | Sf9 cell homogenate | 0.0004546 µM, 0.1667 h, added: α-naphthyl acetate substrate | baseline: no inhibitor | remaining activity | 101% |
| LARNCRAPR | HLA class I histocompatibility antigen, A alpha chain | peptide binding, iTopia affinity | peptide | – | – | ED50 | 24 µM |
| CC[C@H](C)[C@H](NC(=O)[C@H]1CCC[C@@H]1NC(=O)[C@H](CC(=O)O)NC(=O)[C@H](CC(C)C)NC(=O)[C@H](CCCCN)NC(=O)[C@H]1CCC[C@@H]1NC(=O)[C@H](CC(N)=O)NC(=O)[C@H](CO)NC(=O)[C@H]1CNC[C@@H]1NC(=O)[C@H](CCCNC(=N)N)NC(=O)[C@@H](NC(=O)[C@H](Cc1c[nH]c2ccccc12)NC(=O)C[C@H](CCC(=O)O)NC(=O)[C@H](CCCCN)NC(=O)[C@H](CO)NC(=O)C[C@H](CCC(=O)O)NC(=O)[C@H](CCC(=O)O)NC(=O)[C@H](CC(C)C)NC(=O)[C@H](CC(=O)O)NC(=O)[C@H]1CCC[C@@H]1NC(=O)[C@H](CCCCN)NC(=O)[C@@H](NC(=O)[C@H]1CNC[C@@H]1NC(=O)[C@H](CC(N)=O)NC(=O)[C@H](CC(C)C)NC(=O)[C@@H](NC(=O)[C@H]1CCC[C@@H]1NC(=O)[C@H](CO)NC(=O)[C@@H](NC(=O)[C@H](CC(=O)O)NC(=O)[C@@H](NC(=O)[C@@H]1CCCN1C(=O)[C@H](CC(=O)O)NC(=O)[C@H](CC(C)C)NC(=O)[C@H](C)NC(=O)[C@@H](NC(C)=O)C(C)C)[C@@H](C)CC)[C@@H](C)CC)C(C)C)[C@@H](C)CC)[C@@H](C)CC)C(N)=O | Fusion glycoprotein F0, HRN domain (F, Human parainfluenza 3 virus, UniProt P06828) | co-assembly, HPIV3 HRN, with, variable-temperature CD | PBS | 50 µM, 1:1 mixture | – | melting temperature | 67 °C |
| RASVLSGGK | HLA class I histocompatibility antigen, A alpha chain | peptide-MHC complex stability, iTopia off-rate | peptide | – | – | dissociation half-life | 1.04 h |
| N[C@@H](C[C@]1(C(=O)O)C[C@H]2OC[C@@H](O)[C@@H](O)[C@H]2O1)C(=O)O | Grik2 (Rattus norvegicus, UniProt P42260, Y443F) | [3H]kainate displacement | – | – | baseline: wild-type GluK2 | affinity decrease | 100 fold |
| COc1cc2c3cc1Oc1cc(ccc1O)C[C@@H]1c4c(cc(OC)c(O)c4Oc4ccc(cc4)C[C@@H]3N(C)CC2)CC[N+]1(C)C | Chrnd/Chrna1/Chrne (Mus musculus, UniProt P02716+P04756+P20782) | – | mouse diaphragm | 0.04 µM, AChE inhibited | baseline: control | response amplitude | 88% |
| CCOP(=O)(OCC)Oc1ccc([N+](=O)[O-])cc1 | Phosphotriesterase-like lactonase (Geobacillus stearothermophilus, UniProt D0VX06) | – | – | – | – | Km | 2100 ± 320 µM |
| KNCRAPRKK | HLA class I histocompatibility antigen, A alpha chain | peptide binding, iTopia affinity | peptide | – | – | ED50 | 84.3 µM |
| C[C@@H]1Cc2c(Cl)cc(C(=O)N[C@@H](Cc3ccccc3)C(=O)O)c(O)c2C(=O)O1 | SLC22A11 (Homo sapiens, UniProt Q9NSA0) | substrate | CHO cells expressing human OAT4 | 5 min, pH 7.4 | – | Km | 10.6 ± 7.6 µM |
| RASILSGGK | HLA class I histocompatibility antigen, A alpha chain | iTopia binding | peptide | 11 µM, 18 h, 21 °C | baseline: positive control | peptide binding | 87.6% |
| Cc1cn([C@H]2C=C[C@@H](COP(=O)(O)OP(=O)(O)OP(=O)(O)O)O2)c(=O)[nH]c1=O | Gag-Pol polyprotein, reverse transcriptase (gag-pol, Human immunodeficiency virus type 1 group M subtype B, UniProt P04585, K653N) | reverse transcriptase activity, inhibitor | HIV-1 | – | baseline: K66N mutant over wild type | fold resistance | ~2 fold |
| CCN(CC)c1nc(C)cc(OP(=S)(OC)OC)n1 | uncharacterized protein | enzyme activity, inhibitor | Sf9 cell homogenate | 22.94 µM, 0.1667 h, added: α-naphthyl acetate substrate | baseline: no inhibitor | remaining activity | 94.9% |
| AKNCRAPRK | HLA class I histocompatibility antigen, A alpha chain | iTopia binding | peptide | 11 µM, 18 h, 21 °C | baseline: positive control | peptide binding | 80.2% |
| Nc1nc2c(ncn2[C@H]2C[C@H](O)[C@@H](COP(=O)(O)OP(=O)(O)OP(=O)(O)O)O2)c(=O)[nH]1 | gag-pol K653A reverse transcriptase | nucleotide misinsertion, steady-state kinetics | – | K66A mutant RT, added: opposite template T | – | Km | 74.4 ± 43.6 µM |
| ARNCRAPRK | HLA class I histocompatibility antigen, A alpha chain | peptide binding, iTopia affinity | peptide | – | – | ED50 | 31.8 µM |
| C[C@@H](O)[C@H](NC(=O)[C@H](Cc1ccccc1)NC(=O)[C@H](Cc1ccccc1)NC(=O)[C@H](CC(=O)O)NC(=O)[C@H](CC(=O)O)NC(=O)[C@H](Cc1c[nH]c2ccccc12)NC(=O)[C@H](CO)NC(=O)[C@@H](N)CCCCN)C(=O)N[C@@H](CCCNC(=N)N)C(=O)O | Epithelial sodium channel subunit beta | binding, bio-layer interferometry | – | – | – | kon | 169 M⁻¹ s⁻¹ |
| Nc1ccn([C@H]2C[C@H](O)[C@@H](COP(=O)(O)OP(=O)(O)OP(=O)(O)O)O2)c(=O)n1 | gag-pol K653A reverse transcriptase | nucleotide misinsertion, steady-state kinetics | – | K66A mutant RT, added: opposite template T | – | Km | 351 ± 326 µM |
| CC[C@H](C)[C@H](NC(=O)[C@H](CC(C)C)NC(=O)[C@@H](NC(=O)[C@@H](NC(=O)[C@H](CC(C)C)NC(=O)[C@H](CC(=O)O)NC(=O)[C@H](CC(C)C)NC(=O)[C@H](Cc1ccccc1)NC(=O)[C@H](Cc1c[nH]c2ccccc12)NC(=O)[C@@H](NC(=O)[C@H](CC(C)C)NC(=O)[C@H](Cc1ccccc1)NC(=O)[C@H](Cc1ccc(O)cc1)NC(=O)[C@H](Cc1c[nH]c2ccccc12)NC(=O)[C@H](CC(C)C)NC(=O)[C@H](CCCCN)NC(=O)[C@H](Cc1c[nH]c2ccccc12)NC(=O)[C@H](Cc1c[nH]c2ccccc12)NC(=O)[C@H](CCCCN)NC(=O)[C@H](CCCCN)NC(=O)[C@H](CCCCN)NC(=O)[C@H](CCCCN)NC(=O)CNC(=O)CCCCCNC(=S)Nc1ccc2c(c1)C(=O)OC21c2ccc(O)cc2Oc2cc(O)ccc21)C(C)C)[C@@H](C)CC)[C@@H](C)CC)C(=O)N[C@@H](CC(C)C)C(=O)N[C@@H](CC(C)C)C(=O)N[C@@H](CC(C)C)C(=O)N[C@@H](Cc1c[nH]c2ccccc12)C(=O)N[C@@H](Cc1c[nH]c2ccccc12)C(=O)N[C@@H](CCCCN)C(=O)N[C@@H](CCCCN)C(=O)N[C@@H](CCCCN)C(=O)N[C@@H](CCCCN)C(=O)O | Latent membrane protein 1, transmembrane domain 5 (Human herpesvirus 4, UniProt P03230) | FRET | C14 betaine micelles | concentration not given, pH 7.4, added: coumarin-labelled TMD5 50 nM | – | binding stoichiometry | 0.53 ± 0.02 |
| Cc1cn([C@H]2C[C@H](O)[C@@H](COP(=O)(O)OP(=O)(O)OP(=O)(O)O)O2)c(=O)[nH]c1=O | Gag-Pol polyprotein, reverse transcriptase (gag-pol, Human immunodeficiency virus type 1 group M subtype B, UniProt P04585, K653T) | nucleotide misinsertion, steady-state kinetics | – | K66T mutant RT, added: opposite template T | – | Km | 1620 ± 704 µM |
| Cc1c2oc3c(C)ccc(C(=O)N[C@@H]4C(=O)N[C@H](C(C)C)C(=O)N5CCC[C@H]5C(=O)N(C)CC(=O)N(C)[C@@H](C(C)C)C(=O)O[C@@H]4C)c3nc-2c(C(=O)N[C@@H]2C(=O)N[C@H](C(C)C)C(=O)N3CCC[C@H]3C(=O)N(C)CC(=O)N(C)[C@@H](C(C)C)C(=O)O[C@@H]2C)c(N)c1=O | Non-structural polyprotein pORF1, RNA-dependent RNA polymerase (Hepatitis E virus genotype 1, UniProt P33424) | PicoGreen fluorescence | Hepatitis E virus | 5 µM, added: poly(C)/GTP | – | RdRp activity | no effect |
| Nc1ncnc2c1ncn2[C@H]1C[C@H](O)[C@@H](COP(=O)(O)OP(=O)(O)OP(=O)(O)O)O1 | gag-pol K653A reverse transcriptase | substrate | – | K66A mutant, added: G:A mismatched primer template | – | Km | 326 ± 164 µM |
| CC[C@H](C)[C@H](NC(=O)[C@H](CO)NC(=O)[C@H](Cc1ccc(O)cc1)NC(=O)[C@H](CC(=O)O)NC(=O)[C@H](CO)NC(=O)[C@@H](NC(=O)[C@H](Cc1ccccc1)NC(=O)[C@@H](NC(=O)CNC(=O)[C@H](CCC(=O)O)NC(=O)[C@@H](C)NC(=O)[C@@H](N)Cc1ccc(O)cc1)[C@@H](C)O)[C@@H](C)CC)C(=O)N[C@@H](C)C(=O)N[C@@H](CCSC)C(=O)N[C@@H](CC(=O)O)C(=O)N[C@@H](CCCCN)C(=O)N[C@H](C(=O)N[C@@H](Cc1c[nH]cn1)C(=O)N[C@@H](CCC(N)=O)C(=O)N[C@@H](CCC(N)=O)C(=O)N[C@@H](CC(=O)O)C(=O)N[C@@H](Cc1ccccc1)C(=O)N[C@H](C(=O)N[C@@H](CC(N)=O)C(=O)N[C@@H](Cc1c[nH]c2ccccc12)C(=O)N[C@@H](CC(C)C)C(=O)N[C@@H](CC(C)C)C(=O)N[C@@H](C)C(=O)N[C@@H](CCC(N)=O)C(=O)NCC(=O)N1CCC[C@H]1C(=O)N[C@@H](CO)C(=O)N[C@@H](CO)C(=O)NCC(=O)N[C@@H](C)C(=O)N1CCC[C@H]1C(=O)N1CCC[C@H]1C(=O)N1CCC[C@H]1C(=O)N[C@@H](CO)C(=O)N[C@@H](CCCCN)C(N)=O)C(C)C)[C@@H](C)CC | Glucagon-like peptide 1 receptor (Mus musculus, UniProt O35659) | cAMP, agonist | – | – | – | Emax | 39% |

Some of these lines once more:
| Molecule | target | assay | test system | conditions | scale | quantity | value |
| --- | --- | --- | --- | --- | --- | --- | --- |
| Cc1cn([C@H]2C[C@H](O)[C@@H](COP(=O)(O)OP(=O)(O)OP(=O)(O)O)O2)c(=O)[nH]c1=O | Gag-Pol polyprotein, reverse transcriptase (gag-pol, Human immunodeficiency virus type 1 group M subtype B, UniProt P04585, K653T) | nucleotide misinsertion, steady-state kinetics | – | K66T mutant RT, added: opposite template T | – | Km | 1620 ± 704 µM |
| Cc1c2oc3c(C)ccc(C(=O)N[C@@H]4C(=O)N[C@H](C(C)C)C(=O)N5CCC[C@H]5C(=O)N(C)CC(=O)N(C)[C@@H](C(C)C)C(=O)O[C@@H]4C)c3nc-2c(C(=O)N[C@@H]2C(=O)N[C@H](C(C)C)C(=O)N3CCC[C@H]3C(=O)N(C)CC(=O)N(C)[C@@H](C(C)C)C(=O)O[C@@H]2C)c(N)c1=O | Non-structural polyprotein pORF1, RNA-dependent RNA polymerase (Hepatitis E virus genotype 1, UniProt P33424) | PicoGreen fluorescence | Hepatitis E virus | 5 µM, added: poly(C)/GTP | – | RdRp activity | no effect |
| Nc1ncnc2c1ncn2[C@H]1C[C@H](O)[C@@H](COP(=O)(O)OP(=O)(O)OP(=O)(O)O)O1 | gag-pol K653A reverse transcriptase | substrate | – | K66A mutant, added: G:A mismatched primer template | – | Km | 326 ± 164 µM |
